# Published values pooled from the literature.
# ± marks the error that the study gave.
# cofactor-independent phosphoglycerate mutase W431C: cofactor-independent phosphoglycerate mutase (Metamycoplasma orale, UniProt A0A448ZXM1, W431C)
# Sequence of UniProt P0A725 (whole entry, looked up): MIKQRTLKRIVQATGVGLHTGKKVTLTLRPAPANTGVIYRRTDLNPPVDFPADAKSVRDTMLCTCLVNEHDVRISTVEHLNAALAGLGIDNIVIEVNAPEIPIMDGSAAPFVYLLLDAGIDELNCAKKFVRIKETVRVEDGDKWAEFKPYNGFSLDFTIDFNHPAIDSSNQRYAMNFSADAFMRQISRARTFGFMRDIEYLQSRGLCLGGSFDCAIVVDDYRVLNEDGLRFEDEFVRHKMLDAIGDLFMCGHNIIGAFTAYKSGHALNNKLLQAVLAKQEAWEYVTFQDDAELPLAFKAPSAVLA
SMILES,target or system,test,system,conditions,endpoint,result
N=C(N)NCCC[C@@H]1NC(=O)[C@H](CCCCNC(=O)CCOCCOCCOCCOCCNC(=O)CN2CCN(CC(=O)O)CCN(CC(=O)O)CCN(CC(=O)O)CC2)NC(=O)[C@@H](Cc2ccccc2)NC(=O)[C@H](CC(=O)O)NC(=O)CNC1=O [indium-111 labelled],,,"female athymic nude mice, lungs","intravenous, 3 µCi, 24 h, U-87 MG glioma xenograft",tissue uptake,0.3 ± 0.06 %ID/g
CN[C@](C)(C[18F])C(=O)O,A549 tumour model,,"host not given, lung","15 min, tumour-bearing",tracer uptake,3.3 %ID/g
C[C@@](O)(C(F)F)[C@H](NC(=O)c1ccc(C#CC#CC2CC2)cc1)C(=O)NO,"UDP-3-O-acyl-N-acetylglucosamine deacetylase (Escherichia coli K-12, UniProt P0A725)","enzyme activity, inhibitor",,,Ki,0.00022 µM
Cc1nc(C(=O)N[C@@H](CCCNC(=N)N)C(=O)NCC(=O)N[C@@H](CC(=O)O)C(=O)N[C@@H](CO)C(=O)NC2CC(C)(C)N([O])C(C)(C)C2)cc2c1[nH]c1ccccc12,PC-12,"cytoprotection, MTT",,"1 h pretreatment, with: 2 mM sodium nitroprusside 2 h",EC50,61.5 ± 3.7 µM
CC(C)C[C@@H](NC(=O)[C@@H](CCCCN)NC(=O)CCN1C(=O)CC(SC[C@H](NC(=O)[C@H](CCCCNC(=O)CCN2C(=O)CC(SC[C@H](NC(=O)[C@H](CCCCN)NC(=O)[C@H](CCCCN)NC(=O)[C@H](CCCCN)NC(=O)[C@H](CO)NC(=O)CNC(=O)CNC(=O)CNC(=O)[C@H](Cc3ccc(O)cc3)NC(=O)[C@H](Cc3c[nH]c4ccccc34)NC(=O)[C@H](Cc3c[nH]c4ccccc34)NC(=O)[C@H](CCCCN)NC(=O)[C@@H](NC(=O)CNC(=O)[C@H](Cc3c[nH]c4ccccc34)NC(=O)[C@@H]3CCCN3C(=O)[C@H](CC(=O)O)NC(=O)[C@H](CCC(N)=O)NC(=O)[C@H](CCC(=O)O)NC(=O)[C@@H](N)Cc3ccc(O)cc3)C(C)C)C(N)=O)C2=O)NC(=O)CCN2C(=O)CC(SC[C@H](NC(=O)[C@H](CCCCN)NC(=O)[C@H](CCCCN)NC(=O)[C@H](CCCCN)NC(=O)[C@H](CO)NC(=O)CNC(=O)CNC(=O)CNC(=O)[C@H](Cc3ccc(O)cc3)NC(=O)[C@H](Cc3c[nH]c4ccccc34)NC(=O)[C@H](Cc3c[nH]c4ccccc34)NC(=O)[C@H](CCCCN)NC(=O)[C@@H](NC(=O)CNC(=O)[C@H](Cc3c[nH]c4ccccc34)NC(=O)[C@@H]3CCCN3C(=O)[C@H](CC(=O)O)NC(=O)[C@H](CCC(N)=O)NC(=O)[C@H](CCC(=O)O)NC(=O)[C@@H](N)Cc3ccc(O)cc3)C(C)C)C(N)=O)C2=O)C(=O)O)C1=O)C(=O)N[C@H](C)C(=O)N[C@H](CCCCN)C(=O)N[C@H](CC(C)C)C(=O)N[C@H](C)C(=O)N[C@H](CCCCN)C(=O)N[C@H](CCCCN)C(=O)N[C@H](CC(C)C)C(=O)N[C@H](C)C(=O)N[C@H](CCCCN)C(=O)N[C@H](CC(C)C)C(=O)N[C@H](C)C(=O)N[C@H](CCCCN)C(N)=O (some centres unmarked),M2 macrophages,"cell viability, propidium iodide staining",,2 h,EC50,1.08 µM
N=C(N)NCCC[C@@H]1NC(=O)[C@@H](Cc2ccc(O)cc2)NC(=O)CSC[C@@H](C(=O)N2CCC[C@H]2C(=O)N[C@@H](CCCCN)C(=O)N[C@@H](CS)C(N)=O)NC(=O)[C@H](CCC(=O)O)NC(=O)[C@H](Cc2ccc(O)cc2)NC(=O)[C@H](CCCCN)NC(=O)[C@H](Cc2ccc(O)cc2)NC(=O)[C@H](Cc2ccc(O)cc2)NC(=O)[C@H](CCC(=O)O)NC(=O)[C@H](Cc2ccc(O)cc2)NC1=O,cofactor-independent phosphoglycerate mutase W431C,biochemical,Mycoplasma orale,,AC50,24.5 µM
CCOC(=O)CCCCC[C@@H]1NC(=O)[C@H]2CCCCN2C(=O)[C@H]([C@@H](C)CC)NC(=O)[C@H](Cc2c[nH]c3ccccc23)NC1=O,human iPSC-derived NPCs,"inducer, ELISA, measured: intracellular progranulin",,18 h,EC50,9 ± 2 µM
F[P-](F)(F)(F)(F)F.F[P-](F)(F)(F)(F)F.[Ru+2].c1ccc(-c2ccccn2)nc1.c1ccc(-c2ccccn2)nc1.c1csc(-c2cc3cccnc3c3ncccc23)c1,HL-60,"cell viability, resazurin",,"16 h drug-to-light interval, with: red light 625 nm, 100 J/cm2",EC50,> 300 µM
CN1C(=O)[C@H](Cc2ccc(O)cc2)NC(=O)CNC(=O)[C@H](Cc2ccc(O)cc2)NC(=O)[C@H](CCC(=O)O)NC(=O)[C@H](Cc2ccc(O)cc2)N(C)C(=O)[C@H](Cc2ccc(O)cc2)N(C)C(=O)[C@H](CCC(N)=O)NC(=O)[C@H](Cc2c[nH]c3ccccc23)NC(=O)[C@H](Cc2ccc(O)cc2)NC(=O)[C@@H](Cc2ccc(O)cc2)NC(=O)CSC[C@@H](C(N)=O)NC(=O)[C@H](CCCCN)NC(=O)[C@@H]1Cc1ccc(O)cc1,cofactor-independent phosphoglycerate mutase W431C,biochemical,Mycoplasma orale,,AC50,1.2 µM
CC(C)C[C@@H](/C=C/[C@H](Cc1ccccc1)C(=O)N1CCC[C@H]1C(=O)N[C@H](C(=O)N[C@@H](CCCNC(=O)OCc1ccccc1)C(=O)NC1CC(C)(C)N([O])C(C)(C)C1)C(C)C)NC(=O)OC(C)(C)C,HT-1080,"protection from ferroptosis, PrestoBlue",,"24 h, with: erastin 10 µM",EC50,0.114 µM
F[P-](F)(F)(F)(F)F.F[P-](F)(F)(F)(F)F.[Ru+2].c1ccc(-c2ccccn2)nc1.c1ccc(-c2ccccn2)nc1.c1csc(-c2ccc(-c3ccc(-c4cc5cccnc5c5ncccc45)s3)s2)c1,HL-60,"cell viability, resazurin",,"16 h drug-to-light interval, with: visible light 100 J/cm2",EC50,0.21 ± 0.01 µM
C[C@@H]1NC(=O)[C@@H](Cc2ccccc2)NC(=O)[C@@H]2CCCCNC(=O)c3cc(cc(c3)C(=O)N[C@H](Cc3ccc4ccccc4c3)C(=O)N[C@@H](CO)C(=O)N[C@@H](CC(N)=O)C(=O)N[C@H](Cc3ccc4ccccc4c3)C(=O)N[C@@H](c3ccccc3)C(=O)N2)C(=O)NC[C@@H](C(=O)N[C@@H](CCCN)C(=O)N[C@H](CCCNC(=N)N)C(=O)N[C@@H](Cc2ccc(O)cc2)C(=O)N[C@H](C)C(N)=O)NC(=O)[C@H](CCCNC(=N)N)NC(=O)[C@@H](CCCNC(=N)N)NC1=O,H358,"cell viability, CellTiter-Glo",,"96 h, 10% FBS",EC50,19 ± 10 µM
CC[C@H](C)[C@H](NC(=O)[C@H](CC(N)=O)NC(=O)[C@H](CCCCN)NC(=O)[C@H](Cc1ccccc1)NC(=O)[C@H](Cc1ccccc1)NC(=O)[C@H](Cc1c[nH]cn1)NC(=O)[C@@H](NC(=O)[C@@H](NC(=O)[C@@H]1CCCN1C(=O)[C@@H](N)CC(N)=O)C(C)C)C(C)C)C(=O)N[C@H](C(=O)N[C@H](C(=O)N[C@@H](C)C(=O)O)[C@@H](C)O)C(C)C,T cell clone Ob.1C3,"T cell proliferation, agonist, [3H]thymidine incorporation",,"72 h, peptide-pulsed APC, with: EBV-transformed B cells DR2/DQ6 as APC",EC50,> 50 µM
CC[C@H](C)[C@H](NC(=O)[C@H](C)NC(=O)[C@@H]1CCCN1C(=O)C(C)(C)NC(=O)[C@H](CC(C)C)NC(=O)[C@H](CCC(N)=O)NC(=O)C(C)(C)NC(C)=O)C(=O)NC(C)(C)C(=O)N1CCC[C@H]1C(=O)NC(C)(C)C(=O)N[C@@H](CC(C)C)C(=O)NC(C)(C)C(=O)N1CCC[C@H]1C(=O)N[C@H](CO)CC(C)C,HepG2,"cytotoxicity, MTS",,48 h,EC50,> 25 µM
CC(C)C[C@H](NC=O)C(=O)N[C@@H](C)C(=O)N[C@@H](C)C(=O)N[C@@H](CC(=O)O)C(=O)N[C@@H](CC(C)C)C(=O)N[C@@H](CC(C)C)C(=O)N[C@@H](C)C(=O)N[C@@H](C)C(=O)N[C@@H](CC(C)C)C(=O)NCC(=O)N[C@@H](CC(=O)O)C(=O)N[C@@H](CC(C)C)C(=O)N[C@@H](CC(C)C)C(=O)N[C@@H](CCCCN)C(=O)N[C@@H](Cc1c[nH]c2ccccc12)C(=O)N[C@@H](CC(C)C)C(=O)N[C@@H](CC(C)C)C(=O)N[C@@H](CC(=O)O)C(=O)N[C@@H](C)C(=O)N[C@@H](CC(C)C)C(=O)N[C@@H](C)C(=O)N[C@@H](CCCCN)C(=O)N[C@@H](CC(C)C)C(=O)N[C@@H](C)C(=O)N[C@@H](CCCCN)C(=O)N[C@@H](CCCCN)C(=O)O (racemic),sheep erythrocytes,turbidity,,pH 7.5,EC50,≥ 80 µM
C[C@@H]1NC(=O)[C@@H](Cc2ccccc2)NC(=O)[C@@H]2CCCCNC(=O)c3cc(cc(c3)C(=O)N[C@H](Cc3ccc4ccccc4c3)C(=O)N[C@@H](CO)C(=O)N[C@@H](CC(N)=O)C(=O)N[C@H](Cc3ccc4ccccc4c3)C(=O)N[C@@H](c3ccccc3)C(=O)N2)C(=O)NC[C@@H](C(=O)N[C@@H](CCN)C(=O)N[C@H](CCCNC(=N)N)C(=O)N[C@@H](Cc2ccc(F)cc2)C(=O)N[C@H](C)C(N)=O)NC(=O)[C@H](CCCNC(=N)N)NC(=O)[C@@H](CCCNC(=N)N)NC1=O,H358,"cell viability, CellTiter-Glo",,"96 h, 10% FBS",EC50,12 ± 8 µM
N[C@@H]1C[C@H]1c1ccccc1 (racemic),TF-1a,"cell growth or viability, resazurin",,,EC50,> 2 µM
